{"data": "Measurements gathered from unrelated publications", "note": "Each line is one published result; not all experiments were run side by side. Numbers after ± are the reported error."}
{"SMILES": "COC(=O)C(c1ccccc1Cl)N1CCC(SCC(=O)c2cccc(OC)c2)C(=CC(=O)O)C1 (mixture of isomers)", "assay": "HPLC-MS/MS", "system": "feline citrate plasma", "setting": "100 ng/mL, 24 h, 4 °C, storage stability", "endpoint": "deviation from nominal", "result": "-2%"}
{"SMILES": "N=C(N)NCCC[C@@H]1NC(=O)[C@H](Cc2c[nH]c3ccccc23)NC(=O)[C@@H](CC2CCCCC2)NC(=O)[C@@H]2CCCN2C(=O)[C@@H](NC(=O)CCc2ccccc2)CCCNC1=O", "assay": "two-compartment model", "system": "C57BL/6J mouse, plasma plasma", "setting": "subcutaneous, 1 mg/kg single dose", "endpoint": "K21", "result": "2.08 h⁻¹"}
{"SMILES": "CC(=O)N([O-])CCCCCNC(=O)CCC(=O)N([O-])CCCCCNC(=O)CCC(=O)N([O-])CCCCCN.[89Zr+4]", "system": "aqueous solution", "setting": "7 d, pH 7.2, 37 °C, transmetalation, with: FeCl3 100-fold excess", "endpoint": "intact compound remaining", "result": "34%"}
{"SMILES": "O=C(CCc1ccc(CNC(C(=O)O)C2CCCCC2)cn1)NO (centres unmarked)", "system": "healthy male humans, plasma", "setting": "oral, 10 mg, single dose, geometric mean", "endpoint": "AUC(0-t)", "result": "37.2 ng·h/mL"}
{"SMILES": "Cn1c(=O)c2c(nc(CN3CCN(C(=O)C4CC4)CC3)n2Cc2ccccc2)n(C)c1=O", "assay": "metabolic stability", "system": "rat, liver microsomes", "endpoint": "half-life", "result": "0.433 h"}
{"SMILES": "CCOC(=O)c1[nH]c(C)c(/C=C/C2=[N+]3C(=C(c4cc(OC)cc(OC)c4)c4c(C)c(I)c(/C=C/c5c(C)[nH]c(C(=O)OCC)c5C)n4[B-]3(F)F)C(C)=C2I)c1C", "system": "DMSO", "endpoint": "Stokes shift", "result": "750 cm⁻¹"}
{"SMILES": "CCCCCCCCCCCCCCCC(=O)N[C@@H](CCCCN)C(=O)N[C@@H](CCCCN)C(=O)N[C@@H](CO)C(=O)N[C@@H](CCCNC(=N)N)C(=O)N[C@@H](C)C(=O)N[C@@H](CC(C)C)C(=O)N[C@@H](Cc1ccccc1)C(N)=O", "system": "cynomolgus monkey, male", "setting": "10 mg/kg, day 5", "endpoint": "activated partial thromboplastin time", "result": "29.6 ± 2.9 s"}
{"SMILES": "Cn1c(=O)oc2ccc(-c3ccc(CC(C#N)NC(=O)C4CNCCCO4)c(F)c3)cc21 (centres unmarked)", "assay": "refers to: aspartate aminotransferase increased", "system": "human volunteers", "setting": "oral, dose not given", "endpoint": "treatment-emergent adverse event incidence", "result": "3.7%"}
{"SMILES": "CCCC[C@@H]1NC(=O)[C@@H](NC(=O)[C@H](CCC(=O)O)NC(=O)CNC(=O)CN2CCN(CC(=O)O)CCN(CC(=O)O)CCN(CC(=O)O)CC2)CCCCNC(=O)C[C@@H](C(N)=O)NC(=O)[C@H](C(C)C)NC(=O)[C@@H]2CCCN2C(=O)[C@H](CCCNC(=N)N)NC(=O)CNC(=O)[C@H](Cc2c[nH]c3ccccc23)NC(=O)[C@H](CCCNC(=N)N)NC(=O)[C@@H](Cc2ccccc2)NC(=O)[C@H](Cc2c[nH]cn2)NC(=O)[C@H](CCC(=O)O)NC1=O [gallium-67 labelled]", "system": "C57 mice with B16/F1 melanoma, kidneys", "setting": "intravenous, 0.037 MBq, 2 h", "endpoint": "tissue uptake", "result": "27.6 ± 7.87 %ID/g"}
{"SMILES": "CC(O)c1nc(-c2ccc3c(c2)CCC3NC(=O)c2cnn(C)c2)no1 (centres unmarked)", "system": "human, pooled plasma", "setting": "oral, 20 mg, 2 to 264 h", "how to read": "relative to: total radioactivity AUC", "endpoint": "AUC(0-t) share of total radioactivity", "result": "36.4%"}
{"SMILES": "CCc1cc(Nc2nc(-c3ccc(-n4cnc(C)c4)c(F)c3)cs2)c(C)cc1C", "system": "human, both sexes, plasma", "setting": "oral, 200 mg once daily, day 14, multiple dose, geometric mean", "endpoint": "apparent terminal volume (Vz/F)", "result": "552000 mL"}
{"SMILES": "CCCC[C@H](NC(=O)CNC(=O)CNC(=O)CN1CCN(CC(=O)O)CCN(CC(=O)O)CC1)C(=O)N[C@H]1CC(=O)NCCCC[C@@H](C(N)=O)NC(=O)[C@H](Cc2c[nH]c3ccccc23)NC(=O)[C@H](CCCNC(=N)N)NC(=O)[C@@H](Cc2ccccc2)NC(=O)[C@H](Cc2c[nH]cn2)NC1=O [copper-64 labelled]", "system": "female C57 mouse, B16/F1 melanoma", "setting": "intravenous, 0.037 MBq, 24 h", "how to read": "relative to: tumour over lung", "endpoint": "uptake ratio", "result": 11.5}
{"SMILES": "C[N+](C)(C)CC(CC(=O)[O-])OC(=O)CCC(=O)Nc1ccn([C@@H]2O[C@H](CO)[C@@H](O)C2(F)F)c(=O)n1 (some centres unmarked)", "system": "extracted rat plasma", "setting": "3200.00 ng/mL, 8 h, 10 °C, autosampler stability, high QC", "endpoint": "measured concentration", "result": "3130 ± 138 ng/mL"}
{"SMILES": "CC(C)(C)ONc1nc(Nc2ccnc(C(F)(F)F)c2)nc(-c2cccc(C(F)(F)F)n2)n1", "system": "female Balb/cA nude mice xenograft, tumour", "setting": "oral, 18.05 mg/kg", "endpoint": "half-life", "result": "19.8 h"}
{"SMILES": "CC(C)c1cnc(-c2cc(Cl)ccc2F)cc1Nc1ccncc1C(=O)NC(CO)CO", "assay": "monotherapy, refers to: vomiting", "system": "human patients", "setting": "oral, dose not given, grade 2, phase I A", "endpoint": "patients with treatment-related adverse event", "result": "0%"}
{"SMILES": "CC(C)(O)c1ncc([S@](N)(=O)=NC(=O)Nc2c3c(cc4c2CCC4)CCC3)s1", "system": "healthy human volunteers, plasma", "setting": "oral, 50 mg twice daily, day 14, fed, enteric-coated tablet", "endpoint": "dose-normalised AUC(0-tau)", "result": "1220 ng·h/mL/mg"}
{"SMILES": "[11CH3]c1ccc2nc(C3CCC3)n(-c3ccc4[nH]ncc4c3)c2n1", "assay": "extrapolated from mouse biodistribution", "system": "human female, uterus", "endpoint": "absorbed dose", "result": "4 µSv/MBq"}
{"SMILES": "Cc1ccc(C(=O)N[C@@H](CO)CC(C)C)cc1CO", "assay": "LC-MS", "system": "Sprague-Dawley rats, pooled sexes, plasma", "setting": "oral, 100 mg/kg of parent drug, 1 h", "how to read": "relative to: total metabolite peak area", "endpoint": "metabolite peak area", "result": "5.88%"}
{"SMILES": "CCOP(=O)(CC(=O)Nc1ccc(S(=O)(=O)N(CC(N)=O)c2ccc(N(CC(N)=O)S(=O)(=O)c3ccc(OC)cc3)c3ccccc23)cc1)OCC", "system": "male mouse, Aβ1-42-injected AD model, brain", "setting": "oral, 40 mg/kg, 30 min", "endpoint": "peak brain concentration", "result": "347 ± 160 ng/mL"}
{"SMILES": "CCCC[C@H](NC(=O)[C@H](CC(C)C)N(C)C(=O)CNC(=O)[C@@H](NC(=O)[C@H](Cc1ccccc1)NC(=O)[C@H](CCCCN)NC(=O)[C@@H](N)CC(=O)O)C(C)C)C(N)=O", "system": "anesthetized Gottingen minipig", "setting": "subcutaneous, 3 µg/kg", "how to read": "relative to: baseline", "endpoint": "heart rate", "result": "-1.46 ± 0.46%"}
{"SMILES": "COCCOCCOCCOCCC(=O)NCc1cc(CNC(=O)CCOCCOCCOCCOC)cc(-c2cc3cc4nc(c(-c5ccc(CCC(=O)O)cc5)c5[nH]c(cc6nc(c(OC)c2[nH]3)CC6(C)C)cc5-c2cc(CNC(=O)CCOCCOCCOCCOC)cc(CNC(=O)CCOCCOCCOCCOC)c2)CC4(C)C)c1", "system": "water with 5% DMF", "setting": "room temperature", "endpoint": "Qy absorption FWHM", "result": "21 nm"}
{"SMILES": "C=CC(=O)Nc1cc(Nc2nccc(-c3cn(C4CC4)c4ccccc34)n2)c(OC)cc1NC", "assay": "radio-HPLC", "system": "human male, feces", "setting": "oral, 110 mg, 96 to 240 h, sample holds 16.61% dose", "how to read": "relative to: sample radioactivity", "endpoint": "share of radioactivity", "result": "1.35%"}
{"SMILES": "CC(C)C[C@@H]1NC(=O)[C@@H](Cc2ccccc2)NC(=O)[C@H](CCN)NC(=O)[C@@H](NC(=O)[C@H](CN)NC(=O)[C@@H](NC(=O)C(CCN)c2cccc(Cl)c2)[C@@H](C)O)CCNC(=O)[C@H]([C@@H](C)O)NC(=O)[C@H](CCN)NC(=O)[C@H](CCN)NC1=O (some centres unmarked)", "system": "CD-1 mouse male, kidney", "setting": "subcutaneous, 17.2 mg/kg, 4 h", "endpoint": "tissue concentration", "result": "589000 ng/g"}
{"SMILES": "Brc1ccccc1-c1nnc(CSc2nnnn2-c2ccccc2)o1", "assay": "metabolic stability", "system": "rat, liver microsomes", "setting": "1 h", "endpoint": "compound remaining", "result": "0.5%"}
{"SMILES": "CCC1C=CC2CCN(C(=O)C3CCC4C=CC5(CCCN5C(=O)C(Cc5ccccc5Cl)NC(C)=O)C(=O)N43)C2C(=O)N1CC(=O)OC (centres unmarked)", "system": "mouse", "setting": "subcutaneous vs osmotic pump, 100 mg/kg", "how to read": "relative to: subcutaneous over osmotic pump", "endpoint": "Cmax ratio", "result": "~10"}
{"SMILES": "CCCC(CCC)NC(=O)c1ccc(O)c(OC)c1", "assay": "LC-MS extracted ion chromatogram", "system": "Sprague-Dawley rat, male and female, pooled plasma", "setting": "oral, 200 mg/kg, 1 h", "endpoint": "peak area", "result": "1.61e+07 cps"}
{"SMILES": "COC(=O)c1ccc(-c2cn(Cc3cc(Cl)ccc3O[11CH3])nn2)cc1", "assay": "PET, two-tissue compartment model", "system": "rhesus monkey, brain WB", "setting": "dose not given", "endpoint": "distribution volume", "result": "0.471 mL/cm³"}
{"SMILES": "CCCC[C@H](NC(=O)CNC(=O)CNC(=O)CN1CCN(CC(=O)O)CCN(CC(=O)O)CC1)C(=O)N[C@H]1CC(=O)NCCCC[C@@H](C(N)=O)NC(=O)[C@H](Cc2c[nH]c3ccccc23)NC(=O)[C@H](CCCNC(=N)N)NC(=O)[C@@H](Cc2ccccc2)NC(=O)[C@H](Cc2c[nH]cn2)NC1=O [gallium-67 labelled]", "system": "C57 mice, female, B16/F1 melanoma, tumour over blood", "setting": "intravenous, 0.037 MBq, 0.5 h", "endpoint": "tumour to tissue uptake ratio", "result": 9.14}
{"SMILES": "N=C(N)NCCC[C@H](NC(=O)[C@@H]1CSSC[C@H](NC(=O)[C@H](Cc2ccc3ccccc3c2)NC(=O)[C@H](CCCNC(=N)N)NC(=O)[C@H](CCCNC(=N)N)NC(=O)CN2CCN(CC(=O)O)CCN(CC(=O)O)CCN(CC(=O)O)CC2)C(=O)N[C@@H](Cc2ccc(O)cc2)C(=O)N[C@@H](CCCNC(N)=O)C(=O)N[C@@H](CCCCN)C(=O)N[C@H](CCCCN)C(=O)N2CCC[C@H]2C(=O)N[C@@H](Cc2ccc(O)cc2)C(=O)N[C@@H](CCCNC(=N)N)C(=O)N[C@@H](CCCNC(N)=O)C(=O)N1)C(N)=O [copper-64 labelled]", "assay": "PET", "system": "mice with CHO-CXCR4 tumours, CHO-CXCR4 tumour", "setting": "100 µCi, 4 h", "endpoint": "tumour uptake", "result": "3.58 ± 0.67 %ID/g"}
